Measured values of several laboratories.
Values joined by “and” are separate records of one study, mostly repeats; a detail may differ. ± marks the error that the study gave.
SLC47A2: Multidrug and toxin extrusion protein 2 (SLC47A2, Homo sapiens, UniProt Q86VL8)
Chain of UniProt Q86VL8 (whole entry, looked up): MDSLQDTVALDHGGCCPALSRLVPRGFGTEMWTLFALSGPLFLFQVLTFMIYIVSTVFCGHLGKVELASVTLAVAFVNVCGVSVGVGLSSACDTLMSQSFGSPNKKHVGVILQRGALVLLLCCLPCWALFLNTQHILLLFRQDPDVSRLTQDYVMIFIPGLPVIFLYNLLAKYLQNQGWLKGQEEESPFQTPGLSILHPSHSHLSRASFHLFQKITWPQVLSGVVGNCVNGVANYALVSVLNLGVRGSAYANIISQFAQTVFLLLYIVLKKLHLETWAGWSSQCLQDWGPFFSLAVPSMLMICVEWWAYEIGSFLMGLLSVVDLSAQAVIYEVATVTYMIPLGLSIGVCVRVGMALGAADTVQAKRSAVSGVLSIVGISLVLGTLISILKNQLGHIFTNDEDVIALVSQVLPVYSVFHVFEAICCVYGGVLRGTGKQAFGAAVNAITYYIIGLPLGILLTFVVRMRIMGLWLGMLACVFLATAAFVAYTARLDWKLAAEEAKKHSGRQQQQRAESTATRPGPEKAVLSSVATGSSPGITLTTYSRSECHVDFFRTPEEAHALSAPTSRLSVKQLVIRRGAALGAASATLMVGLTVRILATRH
Chain of UniProt Q9UNQ0 (whole entry, looked up): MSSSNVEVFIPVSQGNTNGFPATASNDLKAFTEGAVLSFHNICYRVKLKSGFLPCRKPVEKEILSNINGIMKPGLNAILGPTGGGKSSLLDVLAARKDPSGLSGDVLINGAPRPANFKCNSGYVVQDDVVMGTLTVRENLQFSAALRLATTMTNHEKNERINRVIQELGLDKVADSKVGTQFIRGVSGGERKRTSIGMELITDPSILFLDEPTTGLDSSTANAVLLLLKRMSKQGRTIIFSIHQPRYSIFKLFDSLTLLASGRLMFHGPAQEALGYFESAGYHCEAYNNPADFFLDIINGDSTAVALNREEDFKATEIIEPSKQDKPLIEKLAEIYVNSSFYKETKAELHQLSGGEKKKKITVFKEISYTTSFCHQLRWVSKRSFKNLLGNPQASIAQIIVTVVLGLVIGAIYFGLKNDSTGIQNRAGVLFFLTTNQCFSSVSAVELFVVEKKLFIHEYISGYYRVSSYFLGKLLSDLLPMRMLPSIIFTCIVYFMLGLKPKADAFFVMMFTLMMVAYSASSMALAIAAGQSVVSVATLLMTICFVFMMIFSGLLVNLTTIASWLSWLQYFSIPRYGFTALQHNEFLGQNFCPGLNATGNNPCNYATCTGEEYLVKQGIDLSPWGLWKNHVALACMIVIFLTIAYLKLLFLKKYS
Chain of UniProt Q9NPD5 (whole entry, looked up): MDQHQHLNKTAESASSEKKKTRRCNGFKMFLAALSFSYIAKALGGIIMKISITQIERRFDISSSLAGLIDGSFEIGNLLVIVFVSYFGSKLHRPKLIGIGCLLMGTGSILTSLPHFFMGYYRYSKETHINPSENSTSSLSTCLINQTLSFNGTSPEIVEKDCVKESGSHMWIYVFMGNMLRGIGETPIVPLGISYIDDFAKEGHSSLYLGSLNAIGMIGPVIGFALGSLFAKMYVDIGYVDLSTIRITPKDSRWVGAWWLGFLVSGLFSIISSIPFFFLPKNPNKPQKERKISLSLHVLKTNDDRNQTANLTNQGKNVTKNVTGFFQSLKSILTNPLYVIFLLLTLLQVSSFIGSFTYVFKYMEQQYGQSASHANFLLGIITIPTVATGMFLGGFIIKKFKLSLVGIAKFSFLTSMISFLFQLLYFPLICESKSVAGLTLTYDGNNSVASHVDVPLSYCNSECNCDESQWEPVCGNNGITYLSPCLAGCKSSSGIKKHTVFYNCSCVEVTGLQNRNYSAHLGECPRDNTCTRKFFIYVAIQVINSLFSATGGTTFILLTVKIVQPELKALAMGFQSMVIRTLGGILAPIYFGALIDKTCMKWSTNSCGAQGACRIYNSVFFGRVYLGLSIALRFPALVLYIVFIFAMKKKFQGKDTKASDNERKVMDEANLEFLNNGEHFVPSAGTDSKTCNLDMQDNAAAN

SMILES	target or system	test	system	conditions	scale	measurement	result
Fc1ccc(C2=CCNCC2)cc1	Salmonella typhimurium	SOS response, SOS/umu test	TA1535/pSK1002, TGA medium	0.25 mg/mL, 4 h, added: 10% rat liver S9	baseline: untreated	induction factor	1
CC(C)C[C@@H](N)C(=O)N1CCC[C@@H]1C(=O)N[C@H](Cc1ccccc1)C(=O)N[C@H](Cc1ccccc1)C(=O)N[C@H](C)C(N)=O	NGF-differentiated PC-12 neurons	–	–	10 µM, 24 h	baseline: untreated	viability	100%
CN(C)c1cccc(C(=O)NCC2CCN(c3cc(-c4ccc(Cl)cc4)n[nH]3)CC2)c1	Vero-E6	CellTiter-Glo ATP	–	concentration not given, 72 h, retest 8-point duplicates	baseline: DMSO 0%, hyamine -100%, more negative, more toxic	cytotoxicity efficacy	-22.3%
Cc1oncc1C(=O)Nc1ccc(C(F)(F)F)cc1	ABCG2 (Homo sapiens, UniProt Q9UNQ0)	transport, inhibitor	–	100 µM, 5 (unit not given), pH 7, added: CCK-8	–	inhibition	33.5%
CN/C(=N\[N+](=O)[O-])NCc1cnc(Cl)s1	–	–	soil	0 days, nominal 0.12	–	recovery	58%
CNC(=O)c1c(C)oc2cc(Oc3ccnc4cc(OCCN5CCOCC5)ccc34)ccc12	–	–	patients	dose not given	baseline: once daily versus twice daily	systolic blood pressure	no effect
CCCC(C(=O)c1ccc(O)c(OC)c1)N1CCCC1 (centres unmarked)	–	–	rat	subcutaneous, 1 mg/kg MDPV, 240 min	–	brain-to-plasma ratio	0.1
COc1cc2c(c(OC)c1OC)-c1ccc(OC)c(=O)cc1[C@@H](NC(C)=O)CC2	SLC47A2	transport, inhibitor	transiently transfected cells	100 µM, 10 (unit not given), added: thiamine	–	inhibition	-1.42e-14%
CC(C)C[C@H](NC(=O)[C@H](C)NC(=O)[C@@H](NC(=O)[C@H](CCCNC(=N)N)NC(=O)[C@H](CC(C)C)NC(=O)[C@H](Cc1c[nH]c2ccccc12)NC(=O)[C@@H]1CCCN1C(=O)[C@@H](N)CCCCN)C(C)C)C(=O)N[C@@H](CS)C(=O)N1CCC[C@H]1C(=O)NCC(=O)O	HEp-2	WST-1	–	512 µM, 24 h	–	viability	88.4% and 97% and 94.9%
CCCC(C(=O)c1ccc2c(c1)OCO2)N1CCCC1.Cl (racemic)	–	–	rat	subcutaneous, 2 mg/kg, 240 min	–	brain-to-plasma ratio	8.8 ± 1.4
CC1(C)[C@H](C(=O)OCc2cccc(Oc3ccccc3)c2)[C@@H]1C=C(Cl)Cl	CES2 human cytosolic	–	–	0.1 µM, age 1 year	–	enzyme contribution	5.73%
O=C(NCc1ccccc1Cl)C1CCCN(Cc2cccc(-c3ccc(F)cc3F)c2)C1 (centres unmarked)	Vero-E6	CellTiter-Glo ATP	–	72 h, retest 8-point duplicates	baseline: DMSO 0%, hyamine -100%, more negative, more toxic	maximum response	-18.1%
CC[C@H](C)[C@H](NC(=O)[C@H](Cc1ccccc1)NC(=O)[C@H](CCC(=O)O)NC(=O)[C@H](CCCNC(=N)N)NC(=O)[C@H](C)NC(=O)[C@H](C)NC(=O)[C@H](CCC(N)=O)NC(=O)[C@H](CCC(=O)O)NC(=O)[C@H](CCC(=O)O)NC(=O)[C@H](CC(C)C)NC(=O)[C@H](Cc1ccc(O)cc1)NC(=O)[C@H](CO)NC(=O)[C@H](CO)NC(=O)[C@@H](NC(=O)[C@H](CC(=O)O)NC(=O)[C@H](CO)NC(=O)[C@@H](NC(=O)[C@H](Cc1ccccc1)NC(=O)[C@@H](NC(=O)CNC(=O)[C@H](CCC(=O)O)NC(=O)[C@H](C)NC(=O)CCc1c[nH]cn1)[C@@H](C)O)[C@@H](C)O)C(C)C)C(=O)N[C@@H](C)C(=O)N[C@@H](Cc1c[nH]c2ccccc12)C(=O)N[C@@H](CC(C)C)C(=O)N[C@H](C(=O)N[C@@H](CCCNC(=N)N)C(=O)NCC(=O)N[C@@H](CCCNC(=N)N)C(=O)N[C@@H](CCCCNC(=O)COCCOCCNC(=O)COCCOCCNC(=O)CC[C@H](NC(=O)CCCCCCCCCCCCCCCCC(=O)O)C(=O)O)C(=O)NCC(=O)NCC(=O)N[C@@H](CO)C(=O)N[C@@H](CCCCNc1c(NCCCCCN(O)C(=O)CCC(=O)NCCCCCN(O)C(=O)CCC(=O)NCCCCCN(O)C(C)=O)c(=O)c1=O)C(=O)O)C(C)C	–	UPLC-MS	rat, plasma	subcutaneous, 20 nmol/kg	–	terminal elimination rate constant	0.0844 h⁻¹
[Cl-].[Cl-].[Pt+2].[Ru+2].c1ccc(-c2nc3ccccc3nc2-c2ccccn2)nc1.c1cnc2c(c1)ccc1cccnc12.c1cnc2c(c1)ccc1cccnc12	Danio rerio	–	embryos	90 µM, 12 h	–	survival rate	60 ± 3%
CC(C)C[C@@H](NC(=O)[C@H](N)CCCCN)C(=O)N1CCC[C@@H]1C(=O)N[C@H](Cc1ccccc1)C(=O)N[C@H](Cc1ccccc1)C(=O)N[C@H](C)C(N)=O	NGF-differentiated PC-12 neurons	–	–	160 µM, 24 h	baseline: untreated	viability	89.2%
COc1ccc(-c2cn3c(n2)sc2cc(C(=O)NCCCN4CCCCCC4)ccc23)cc1	Vero-E6	CellTiter-Glo ATP	–	concentration not given, 72 h, second round 5-point	baseline: DMSO 0%, hyamine -100%, more negative, more toxic	cytotoxicity efficacy	-28.3%
NC(=O)c1ncn([C@@H]2O[C@H](CO)[C@@H](O)[C@H]2O)n1	SLCO1B3 (Homo sapiens, UniProt Q9NPD5)	transport, inhibitor	transiently transfected cells	100 µM, 10 (unit not given), added: CCK-8	–	inhibition	53.2%
CN1CC[C@@H](c2c(O)cc(O)c3c(=O)cc(-c4ccc(C(F)(F)F)cc4Cl)oc23)[C@@H]1CO	–	item: Hyperglycemia	relapsed AML	oral, 150 mg, grade 3-4, intermittent dosing	–	patients with adverse event	25%

SMILES	target or system	test	system	conditions	scale	measurement	result
CC1CCCCN1CCCNC(=O)c1cc(Sc2cccc(Cl)c2)nc2ccccc12 (centres unmarked)	Vero-E6	CellTiter-Glo ATP	–	concentration not given, 72 h, second round 5-point	baseline: DMSO 0%, hyamine -100%, more negative, more toxic	cytotoxicity efficacy	-11.6%
COc1cc2c(Oc3ccc4[nH]c(C)cc4c3F)ccnc2cc1OCC1(N)CC1	–	–	paediatric recurrent refractory sarcoma	10 mg	–	grade 1 or 2 Triglyceride elevation	50%
CN(C)C(=O)COC(=O)Cc1ccc(OC(=O)c2ccc(NC(=N)N)cc2)cc1	SLC47A2	transport, inhibitor	transiently transfected cells	100 µM, 10 (unit not given), added: thiamine	–	inhibition	93.4%
CO[C@H]1C[C@@H]2CC[C@@H](C)[C@@](O)(O2)C(=O)C(=O)N2CCCC[C@H]2C(=O)O[C@H]([C@H](C)C[C@@H]2CC[C@@H](OC(=O)NCCOCCOCCOCCOCCOCCOCCOCCOCCC(=O)N3CCc4cc(Cn5nc(-c6ccc7oc(N)nc7c6)c6c(N)ncnc65)ccc4C3)[C@H](OC)C2)C[C@@H](O)[C@H](C)/C=C(\C)[C@@H](O)[C@@H](OC)C(=O)[C@H](C)C[C@H](C)/C=C/C=C/C=C/1C	–	–	patients with advanced solid tumours	intravenous, 6 mg weekly, grade 3 or higher	–	maculopapular rash incidence	8.3%
CCN(CC)Cc1cc(Nc2ccnc3cc(Cl)ccc23)ccc1O	Vero-E6	CellTiter-Glo ATP	–	concentration not given, 72 h, second round 5-point	baseline: DMSO 0%, hyamine -100%, more negative, more toxic	cytotoxicity efficacy	-10.8%
CCCC(C(=O)c1ccc(O)c(O)c1)N1CCCC1 (centres unmarked)	–	LC-MS/MS	rat, trunk blood plasma	subcutaneous, 1 mg/kg MDPV, 40 min	–	plasma concentration	15.1 ± 1.9 ng/mL
CC(=O)c1c(C)c2cnc(Nc3ccc(C4CCN(CCS(C)(=O)=O)CC4)cn3)nc2n(C2CCCC2)c1=O	–	–	human patients, plasma	oral, 75 mg twice daily, day 21 multiple doses, added: fulvestrant	–	AUC(0-inf)	1280 ng·h/mL
CCN(CC)Cc1ccc(Nc2ccnc3cc(Cl)ccc23)cc1O	Vero-E6	CellTiter-Glo ATP	–	concentration not given, 72 h, second round 5-point	baseline: DMSO 0%, hyamine -100%, more negative, more toxic	cytotoxicity efficacy	0%
Cc1cc(NC(=O)c2cccc(NC(=O)/C=C/CN(C)C)c2)ccc1Nc1nccc(-c2cccnc2)n1	human coronavirus OC43	virus-induced cell killing	MRC-5	screen	–	maximum inhibition	19.3%
C[C@]1(CO)Cc2ncn(-c3ccc(C#N)c(Cl)c3)c2C(=O)O1	–	–	human	oral, 10 mg, fasted, single dose, geometric mean	–	t1/2	5.5 h
CC(=O)N1CCC(C(=O)N2CCN3C(=O)c4cc(-c5ccccc5)ccc4NC(=O)C3C2)CC1 (centres unmarked)	Salmonella typhimurium	–	TA1535	1.58 µg/plate, added: rat liver S9	–	revertants per plate	15.5
CCCCSCCCNC(=O)C1CCN(Cc2nc(-c3ccc(CC)cc3)oc2C)CC1	Vero-E6	CellTiter-Glo ATP	–	concentration not given, 72 h, second round 5-point	baseline: DMSO 0%, hyamine -100%, more negative, more toxic	cytotoxicity efficacy	-8.26%
O=c1ccc2ccccc2o1	HepG2	item: cell count	–	concentration not given, 24 h	–	probability of response	0.35%
Cc1ccc2c(NC(C)c3ccccc3)nc(N3CCNCC3)nc2c1 (centres unmarked)	Vero-E6	CellTiter-Glo ATP	–	concentration not given, 72 h, second round 5-point	baseline: DMSO 0%, hyamine -100%, more negative, more toxic	cytotoxicity efficacy	0%
COC(=O)C(C(C)C)N(Cc1ccc(-c2ccccc2-c2nn[nH]n2)cc1)N=O (centres unmarked)	TK6	–	–	–	–	micronucleus induction	negative
O=C1c2c(O)c(=O)ccn2N([C@@H]2c3ccccc3SCc3c2ccc(F)c3F)[C@@H]2COCCN12	–	–	BALB/c mice, plasma	oral, 0.5 mg/kg baloxavir marboxil, 4 h	–	plasma concentration	2.08 ng/mL
Cc1c(O)c(=O)ccn1C	human coronavirus OC43	virus-induced cell killing	MRC-5	screen	–	maximum inhibition	11.7%

Repeated from above:
SMILES	target or system	test	system	conditions	scale	measurement	result
CC1CCCCN1CCCNC(=O)c1cc(Sc2cccc(Cl)c2)nc2ccccc12 (centres unmarked)	Vero-E6	CellTiter-Glo ATP	–	concentration not given, 72 h, second round 5-point	baseline: DMSO 0%, hyamine -100%, more negative, more toxic	cytotoxicity efficacy	-11.6%
CN(C)c1cccc(C(=O)NCC2CCN(c3cc(-c4ccc(Cl)cc4)n[nH]3)CC2)c1	Vero-E6	CellTiter-Glo ATP	–	concentration not given, 72 h, retest 8-point duplicates	baseline: DMSO 0%, hyamine -100%, more negative, more toxic	cytotoxicity efficacy	-22.3%
CCN(CC)Cc1cc(Nc2ccnc3cc(Cl)ccc23)ccc1O	Vero-E6	CellTiter-Glo ATP	–	concentration not given, 72 h, second round 5-point	baseline: DMSO 0%, hyamine -100%, more negative, more toxic	cytotoxicity efficacy	-10.8%
CN(C)C(=O)COC(=O)Cc1ccc(OC(=O)c2ccc(NC(=N)N)cc2)cc1	SLC47A2	transport, inhibitor	transiently transfected cells	100 µM, 10 (unit not given), added: thiamine	–	inhibition	93.4%
CN1CC[C@@H](c2c(O)cc(O)c3c(=O)cc(-c4ccc(C(F)(F)F)cc4Cl)oc23)[C@@H]1CO	–	item: Hyperglycemia	relapsed AML	oral, 150 mg, grade 3-4, intermittent dosing	–	patients with adverse event	25%
